Experimental data of several laboratories.
Every numbered part comes from another study and shows a few of its results, in no order. Substitutions count along the parent as printed.

Series 1 — technique: EMSA with sequencing; molecule type: double-stranded DNA, one strand shown; medium: in vitro; tested at: 10 and 20 nM; reference: negative control set to 0; direction: higher = stronger binding; measurement: normalised bound fraction
Target: Hepatocyte nuclear factor 3-alpha (Foxa1, Mus musculus, UniProt P35582, residues 1-468, full length assumed)
UniProt P35582, sequence (whole entry, looked up): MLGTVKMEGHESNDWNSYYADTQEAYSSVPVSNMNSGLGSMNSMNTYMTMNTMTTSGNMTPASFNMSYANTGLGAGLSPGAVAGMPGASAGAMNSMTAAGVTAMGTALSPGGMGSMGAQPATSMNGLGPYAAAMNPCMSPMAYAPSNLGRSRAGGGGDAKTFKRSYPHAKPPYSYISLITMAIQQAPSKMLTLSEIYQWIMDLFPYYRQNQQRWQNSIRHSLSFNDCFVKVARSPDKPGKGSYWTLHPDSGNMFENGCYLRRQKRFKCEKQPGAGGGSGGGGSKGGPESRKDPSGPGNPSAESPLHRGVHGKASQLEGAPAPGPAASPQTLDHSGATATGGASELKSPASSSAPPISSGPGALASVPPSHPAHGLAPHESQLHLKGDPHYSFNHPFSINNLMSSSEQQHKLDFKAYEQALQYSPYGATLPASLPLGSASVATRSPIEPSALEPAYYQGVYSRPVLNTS
Setting: whole designed probe, mean of two concentrations, ends assumed
Constant ends, left off below: GTGAGCGGTGCCCATTGATGGGGAAC … TTTCACTGGGATCGTGGGGAC
CAAGTTTGTGGTCCAGGAGCAACAGGTTATGCCATACAGCCTAGGTGTGTAGTAGGCTACACACCGTCTATGTTTGTGTTGTACACTCTACAATGTTTGCACAATGATGAAATCCCATGACTCATTTCTCAGAACATACCCCTGTTGTTAAGCGATACATGACTGTACTTTTTTTAAAAAGTCCAAGGATATA: 0.489 ratio
AAAGAAAAAAAAAAAAGAAATACCGAAGTGGTTCCCCAAGGCACCAATTTAAAGTGTATATGTGCAGTGCAGGGTTACTGGACCAAGGCACAGTGTAAACAGCGAAATTTTATTTTTTGTTTTCTTTTTCCTAAGATGTTCCTTACTCCCAGTTACATAAAAATGTGTATTACAAGCAAACAAAAATTAACAG: 0.254 ratio
CAGGAGCCTAGCCCTGTCTTTCCTCTGAGAGAAATGGTTTAGTACTTGCTAATTCCATGTTTCTGGCAACTTTATAGAACATAACTCCACAAAGTAAACAAGAATTGATTGTAATTCACTGACAGCTCACAAATCTCCATTCCAGAGAGACTTTCCCTGACTTCTGTATTTAAAGCAGCACGACCCCTCCCCT: 0.447 ratio
CATTAGAGTCAAAGTTGTTAAGGGGAGCTAGTCATAGCTACCACGTGGCCAGGCATGTGGAAATGAATCATCACCAGACACCAGGCACATAAAGTAAATAGATGAATAATGCTGACAACCTAGTTCATAGTGACACACTACTTGAGATATATAGAATAACATTATTACCCAGTAAGTATGTGAACATTCCGAT: 0.428 ratio
ATCTTCCCCCTCTTCCTTGCCCCACCAGCTCACCTTCCCGGGTATCTGCAAATAAGCAAAGTAAACAAAGCCGGCATTCGTTAACCCTCTTCTGGCGCAAACTGCTGTTTACTTTGGATGAATCATGGTCCTTTGGCGACGCCAGGCTCCGGGAGAGCAAAGCACCGTGTCAGGGCCATGATCCGGGGTGGCC: 0.519 ratio

Series 2 — technique: RNA Bind-n-Seq; molecule type: RNA; medium: in vitro; tested at: 365 nM; reference: no-protein control; direction: higher = stronger binding; measurement: RBNS enrichment (R)
Target: RNA binding protein fox-1 homolog 2, RRM domain, GST-SBP tag (RBFOX2, Homo sapiens, UniProt O43251-10, residues 100-194)
Setting: natural RNA segment, single round, ends assumed
Constant ends, left off below: GGGAGUUCUACAGUCCGACGAUC … UGGAAUUCUCGGGUGCCAA
Construct (chain): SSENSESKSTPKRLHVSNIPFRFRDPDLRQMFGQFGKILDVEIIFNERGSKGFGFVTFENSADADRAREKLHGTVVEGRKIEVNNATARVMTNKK
AUAAAGAAUAGGCCCCUGCCUGGCUCCUGGGAGAUAACCUCUAAGCCAUUAGAAUAUCUUGCCUGAUAAGAGUGUUUUUGUUUACCUGUGGGCCUUGGGCCAUGCAGUAU: 0.511
GAUAUUGCCCAUGAUUCUCACUUUUUCUUUGCCUGGCAUCUAAGCAGGAACCCAUUGUGGAGUAGACUCUCUUCUUCUAUGGAGCCUCUGACAUGGGGAGCAAUGCUAAG: 0.866
UUUUUCUGUAAAUAAAUUUGCAUAUUUUGUAGGACUUUUAAUUGUAAUGAUAGAGAAAAAACAAGGAAAACUAUUUAAUGAAAGCACGAUAUUUAUCUUUGGUAAAUGAC: 4.05
ACCUGCAGGGCAUGAUGGAUCAGUGAUGAAAGAAUUGUAGCCUGUGGCACUUUGUUUUGACCUCUGGUAUAGAACUCUGACUUUUAUAGUUUUAAAAUGAUCAAUCUUUG: 20.7
UACUUUUCGUUGGCAAGGUGACCCGGCCUGAGGAGGGACUCCUUCUGAAACUCAUGGGCUUACACAGAGGGAGCCAGGCAUGUUCUUCAGCCCAUCCAUCUCUUGGUUGC: 7.14
AGCCACCGUCCUCCGUGACACACGGCCCCCUUCCUCCUGUCCCCACACUCCCAGGAGAAACUCCCGGUGUGUUUCUGACCCUUUCAGCCCCAUUAAAGCUCCUGAGCUCU: 0.514
GAGCCACUGGGGCGCAGCAGCGCGCUGCCCCUCUGCCCCAGGGACACCGGGCGCGCAUAACCACCCCUAAUCCCGGUAUUCAGUGGUGAUGCCUAAAGGAAUGUCAGAAA: 0.258
UCACAUGGUUUUGCCAUCCCUAAGUGAACAUCAUUCUGUCUUUGCUCAUGAGCUGGUCUAAUGCAGUCACAUUGGUGCUGAGCUGCCCAGGACCCUGGGACAUAGAUAAA: 0.242

Series 3 — target: CCNE1, cyclin fold, Cln2 fusion (human); technique: yeast growth competition, sequencing; medium: yeast; setting: weak parent motif; reference: not given; direction: higher = stronger binding; measurement: normalised enrichment score
Starting sequence: SAMHD1 docking peptide (human); ASKSRVQLFKDDP
V6G: 0.0133
Q7C: -0.0971
R5Y: 0.0181
R5G: 0.0885
F9T: -0.294
L8A: -0.19
K10E: 0.116
R5K: 0.292
Q7P: -0.0264
K10V: 0.0788
S2Y: 0.331
K3M: 0.065
F9Q: -0.0649
V6W: -0.155
K3T: -0.112
S2A: 0.38
K3C: 0.344
S4H: 0.699
Q7G: 0.0543

Series 4 — technique: protein-binding microarray; molecule type: double-stranded DNA, one strand shown; medium: in vitro; tested at: 0.8 µM; setting: whole 60-bp probe, no competitor; direction: higher = stronger binding; measurement: fluorescence intensity; constant ends, left off below: … GTCTTGATTCGCTTGACGCTGCTG
Target: Centromere-binding protein 1, full length, N-terminal tag (CBF1, Saccharomyces cerevisiae, UniProt P17106, residues 1-351)
UniProt P17106, sequence (whole entry, looked up): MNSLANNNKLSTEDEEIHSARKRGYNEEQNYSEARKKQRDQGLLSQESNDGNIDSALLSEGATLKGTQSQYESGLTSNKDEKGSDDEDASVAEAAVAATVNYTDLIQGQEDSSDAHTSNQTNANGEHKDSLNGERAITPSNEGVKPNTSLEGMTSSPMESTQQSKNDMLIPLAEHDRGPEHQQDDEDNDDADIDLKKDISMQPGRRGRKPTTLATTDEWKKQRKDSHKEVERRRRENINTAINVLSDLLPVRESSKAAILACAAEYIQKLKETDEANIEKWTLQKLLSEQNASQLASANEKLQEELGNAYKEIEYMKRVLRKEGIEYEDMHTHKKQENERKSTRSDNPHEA
GAATAATTGTGTTATCACCTGCTATTTTTCTTTTAG: 953 a.u.
CTAGCTGCACCGCACCACCTTGCAGGTCCCGTGTTC: 1550 a.u.
CTAGGGCACTTTGGTCTGACATCACTTTTTTTATTC: 519 a.u.
CTAAAGTGCAAAAGTTGCGTGAATCAGAAAGTTTTC: 533 a.u.
GAAAGTAGTTCGGTGCTCGTGACAAACCTTTTTTAG: 1230 a.u.
GAAGATAAAACTCCGCACGTTGCTTGATTAATTTAG: 657 a.u.
CTACCAGAGATGCTCCACGTGAAAGATCACCAATTC: 1460 a.u.
TGTACGAAGCTATTACATGTGTCTATAGTAGTTAGG: 583 a.u.
GAATATGAGTACCGTCACGTTTCCTGTTAAAGATAG: 1730 a.u.
GAATCCGCTCGTCGTGGTGGCATGCGCTTTTTTTAG: 644 a.u.
CTAATTTTGTAGGTGCACGTTTGCAACTTTATTTTC: 557 a.u.
GAAAGTAGTTTTCAGCGCGTGGTTAAGCTATTTTAG: 560 a.u.
CTAACGCCAGAGCTTCATGAGACCAAGGAAGGATTC: 523 a.u.
GAATAGTTCTAGCGACACGTCCTATTCATATATTAG: 508 a.u.
CTATATCCTCATCGTAACGTGAATTTTTTTGTCTTC: 561 a.u.
GAATGTATCTTGAATTTCGTGTCACACACTCTTTAG: 904 a.u.
GAATCTATCATGCCTGACGTTCTCGAACGATACTAG: 531 a.u.
CTAAATTGCCTTAGCCACGTAATATGTGCCTTTTTC: 503 a.u.
TGTACGAAGCTATGTGATACAAATATAGTAGTTAGG: 583 a.u.

For quick reference, copied from above (series 3):
L8A: -0.19
K10E: 0.116
R5K: 0.292
Q7P: -0.0264
K10V: 0.0788
S2Y: 0.331
K3M: 0.065
F9Q: -0.0649
